Measurements pooled from the literature.
Each line is one published result; not all experiments were run side by side. Several values in a cell are separate wells, animals, samples, runs or records. Numbers after ± are the reported error.
ABCG2: Broad substrate specificity ATP-binding cassette transporter ABCG2 (ABCG2, Homo sapiens, UniProt Q9UNQ0)
UniProt P05177, sequence (whole entry, looked up): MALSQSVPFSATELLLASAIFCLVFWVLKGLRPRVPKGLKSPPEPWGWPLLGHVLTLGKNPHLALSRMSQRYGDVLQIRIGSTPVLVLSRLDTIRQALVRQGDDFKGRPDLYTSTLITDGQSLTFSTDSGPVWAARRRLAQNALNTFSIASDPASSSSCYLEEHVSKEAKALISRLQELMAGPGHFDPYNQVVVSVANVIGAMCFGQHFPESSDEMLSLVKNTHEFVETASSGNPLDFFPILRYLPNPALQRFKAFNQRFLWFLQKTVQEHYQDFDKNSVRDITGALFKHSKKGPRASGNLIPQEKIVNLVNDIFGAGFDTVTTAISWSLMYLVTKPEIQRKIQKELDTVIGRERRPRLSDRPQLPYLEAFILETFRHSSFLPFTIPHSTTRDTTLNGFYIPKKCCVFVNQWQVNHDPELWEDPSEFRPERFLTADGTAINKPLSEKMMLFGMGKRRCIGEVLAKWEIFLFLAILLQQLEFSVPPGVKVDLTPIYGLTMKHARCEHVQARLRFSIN
UniProt Q9UNQ0, sequence (whole entry, looked up): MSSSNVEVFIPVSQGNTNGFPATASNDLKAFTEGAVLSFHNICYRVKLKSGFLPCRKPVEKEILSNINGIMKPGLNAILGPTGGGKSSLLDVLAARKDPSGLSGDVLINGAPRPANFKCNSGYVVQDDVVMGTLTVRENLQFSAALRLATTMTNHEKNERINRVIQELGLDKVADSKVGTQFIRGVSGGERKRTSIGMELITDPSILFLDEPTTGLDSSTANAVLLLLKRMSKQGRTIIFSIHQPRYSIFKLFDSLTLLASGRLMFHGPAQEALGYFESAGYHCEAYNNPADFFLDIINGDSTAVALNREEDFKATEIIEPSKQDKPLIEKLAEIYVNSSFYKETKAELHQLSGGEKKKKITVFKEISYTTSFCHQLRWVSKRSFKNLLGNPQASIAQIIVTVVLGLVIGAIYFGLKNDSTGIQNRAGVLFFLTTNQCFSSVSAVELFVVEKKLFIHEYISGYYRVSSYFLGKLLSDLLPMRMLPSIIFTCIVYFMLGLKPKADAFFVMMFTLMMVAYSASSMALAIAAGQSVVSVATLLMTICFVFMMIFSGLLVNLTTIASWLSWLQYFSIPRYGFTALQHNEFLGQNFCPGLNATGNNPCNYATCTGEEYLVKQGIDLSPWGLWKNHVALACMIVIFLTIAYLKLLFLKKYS
UniProt Q9NPD5, sequence (whole entry, looked up): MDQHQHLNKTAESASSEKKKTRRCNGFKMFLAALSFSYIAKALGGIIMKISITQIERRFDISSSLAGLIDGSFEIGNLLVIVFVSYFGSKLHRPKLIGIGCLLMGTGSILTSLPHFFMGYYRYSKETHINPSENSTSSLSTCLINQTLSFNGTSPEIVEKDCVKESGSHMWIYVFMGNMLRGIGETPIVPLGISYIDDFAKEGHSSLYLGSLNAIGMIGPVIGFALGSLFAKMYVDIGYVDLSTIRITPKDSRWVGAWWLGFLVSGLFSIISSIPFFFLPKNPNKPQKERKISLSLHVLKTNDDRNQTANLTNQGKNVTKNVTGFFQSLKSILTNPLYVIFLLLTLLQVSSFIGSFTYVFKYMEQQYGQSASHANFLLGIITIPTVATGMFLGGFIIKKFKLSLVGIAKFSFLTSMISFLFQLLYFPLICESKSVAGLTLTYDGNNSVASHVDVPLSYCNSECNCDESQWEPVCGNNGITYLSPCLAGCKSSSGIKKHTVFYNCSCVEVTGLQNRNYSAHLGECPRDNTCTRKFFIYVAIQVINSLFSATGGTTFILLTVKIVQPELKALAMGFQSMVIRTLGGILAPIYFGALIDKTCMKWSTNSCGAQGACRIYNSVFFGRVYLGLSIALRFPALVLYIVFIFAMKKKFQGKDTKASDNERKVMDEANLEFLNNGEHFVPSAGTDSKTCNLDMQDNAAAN

| SMILES | target or system | test | test system | conditions | how to read | measurement | value |
| --- | --- | --- | --- | --- | --- | --- | --- |
| N#C[C@@H]1CC(F)(F)CN1C(=O)CNC(=O)c1ccnc2c(NC(=O)[C@H](CCCCNC(=O)CCOCCOCCOCCOCCOCCOCCNC(=O)CN3CCN(CC(=O)[O-])CCN(CC(=O)[O-])CCN(CC(=O)[O-])CC3)NC(=O)CCCc3ccc(I)cc3)cccc12.[177Lu+3] | U-87 MG tumour model | – | host not given, heart | 1 h, tumour-bearing | – | tracer uptake | 5.67 %ID/g |
| CNc1nc(N)nc2c1ncn2[C@@H]1O[C@H](CO[P@](=O)(O)N[C@@H](C)C(=O)O)[C@@H](O)[C@@]1(C)F | ABCG2 | bidirectional transport | MDCKII transfected with human BCRP | 10 µM, with: Ko143 1 µM | – | Papp B to A | 0.985 ± 0.059 ×10⁻⁶ cm/s |
| O=C(c1ccc(OCCN2CCCCC2)cc1)c1c(-c2ccc(O[C@@H]3O[C@H](C(=O)O)[C@@H](O)[C@H](O)[C@H]3O)cc2)sc2cc(O)ccc12 | Solute carrier organic anion transporter family member 1B3 (SLCO1B3, Homo sapiens, UniProt Q9NPD5) | – | HEK293 expressing SLCO1B3 | pH 7.4 | – | Vmax | 13.6 pmol/min/mg protein |
| CN(O)C(=O)CCC(=O)NCCCN(CCCCN(CCCNC(=O)CCC(=O)N(C)O)C(=O)CCC(=O)N(C)O)C(=O)CCC(=O)N(C)O.[89Zr] | TF (Homo sapiens, UniProt P02787) | transchelation challenge | – | concentration not given, 5 days, 37 °C, with: apo-transferrin 10 equiv | – | transferrin binding | 11.1 ± 1.2% |
| O=C1NC2(CC2)COc2ncc(F)cc2[C@H]2COCCN2c2ccn3ncc1c3n2 | Salmonella typhimurium | Ames test | TA98 | 150 µg/plate, 48 h, with: without S9 | – | revertant colonies | 11 ± 2 revertants/plate |
| CCN(CC)CC#CCNc1ccnc2cc(Cl)ccc12 | Salmonella typhimurium | mini-Ames test | TA97a | 250.0 µg/well, without S9 | – | revertants per well | 0 |
| CNc1nc(N)nc2c1ncn2[C@@H]1O[C@H](CO)[C@@H](O)[C@@]1(C)F | ABCG2 | bidirectional transport | MDCKII transfected with human BCRP | 10 µM, with: Ko143 1 µM | – | efflux ratio | 0.917 ± 0.05 |
| CN1CCCNC(=O)c2cccc(c2)C(=O)NCCCN(C)CCCNc2cccc3c2C(=O)c2cccc(c2C3=O)NCCC1 | SAS | cell growth or viability, CCK-8 | – | 15 µM, 48 h | – | viability | 4.54% |
| N#Cc1cccc(-c2ccc(=O)n(Cc3cccc(-c4ncc(OCC5CCN(CC(=O)N6CCN(c7ccc8c(c7)C(=O)N(C7CCC(=O)NC7=O)C8=O)CC6)CC5)cn4)c3)n2)c1 (centres unmarked) | Caco-2 | transwell monolayer | – | 2 µM, 120 min, pH 7.4, 0.1% DMSO, with: Ko143 10 µM | – | Papp A-B | 0.07 ± 0.06 ×10⁻⁶ cm/s |
| N#C[C@@H]1CCCN1C(=O)CNC(=O)c1ccnc2ccc(OCCCN3CCN(C(=O)CCc4ccc(O)c(CN5CCN6CC(=O)[O][Al-]([18F])([O]C(=O)C5)[O]c5ccc(CCC(=O)N7CCN(CCCOc8ccc9nccc(C(=O)NCC(=O)N%10CCC[C@H]%10C#N)c9c8)CC7)cc5C6)c4)CC3)cc12 (some centres unmarked) | U-87 MG tumour model | – | host not given, bone | 2 h, tumour-bearing | – | tracer uptake | 12.4 %ID/g |
| CCCCCC(=O)N[C@@H](Cc1c[nH]c2ccccc12)C(=O)N[C@@H](CCCC)C(=O)N[C@@H](CC(C)C)C(=O)[C@@]1(C)CO1 | Trypanosoma brucei brucei | – | HepG2 cells, Lister 427 | – | reference: HepG2 CC50 over T. brucei EC50 | selectivity index | < 1 |
| CC(C)Cc1ccc(C(C)C(=O)N[C@@H](CCCCNC(=O)CCOCCOCCOCCOCCOCCOCCNC(=O)CN2CCN(CC(=O)[O-])CCN(CC(=O)[O-])CCN(CC(=O)[O-])CC2)C(=O)Nc2cccc3c(C(=O)NCC(=O)N4CC(F)(F)C[C@H]4C#N)ccnc23)cc1.[177Lu+3] (some centres unmarked) | U-87 MG tumour model | – | host not given, heart | 24 h, tumour-bearing | – | tracer uptake | 0.53 %ID/g |
| C=C(NC(=O)c1csc(-c2nc3c(cc2O)-c2nc(cs2)C(=O)NC(C(C)O)C(=O)NC(=C(C)OC)c2nc(cs2)C(=O)NC2c4nc(cs4)C(=O)NC(COC(=O)c4c5c6c(cccc6n4O)COC(=O)C(OC4CC(C)(O)C(N(C)C)C(C)O4)C2OC5)c2nc-3cs2)n1)C(N)=O (centres unmarked) | – | – | cynomolgus monkey, male, plasma | intravenous infusion, 9 mg/kg single dose | – | volume of distribution | 1600 mL/kg |
| O=C1c2sc(-c3ccc(N4CCC(F)C4)nc3F)nc2CCN1c1cccnc1 (centres unmarked) | – | – | CD1 mouse, brain | i.v., dose not given, 0.5 h | – | concentration | 103 ng/g and 105 ng/g and 85.3 ng/g |
| O=C1C2CC3CC1CC(C(=O)N1CCN(c4ccc([N+](=O)[O-])c5ncccc45)CC1)(C3)C2 | Salmonella typhimurium | Ames test | TA100 | 0.05 µg/well, without S9 | – | mean revertant colonies | 20 colonies/well |
| O=C(Nc1cnccc1-c1ccc([18F])nc1)c1ccnc(NC(=O)C2CC2)c1 | – | – | mice, transgenic, GSK-3β, early-stage, lung | intravenous, dose not given, 120 min, with: tariquidar 15 mg/kg i.v. pre-dose | – | SUV | 0.178 |
| COc1cccc(OC)c1-c1cc(C(=O)NC2(C(=O)O)C3CC4CC(C3)CC2C4)nn1-c1ccc(C(=O)N(C)CCOCCN(C)C(=O)[C@H](CCCCNC(=O)[C@H](CC(C)C)NC(=O)C2OC2C(=O)O)NC(=O)CN2CCN(CC(=O)[O-])CCN(CC(=O)[O-])CCN(CC(=O)[O-])CC2)cc1C(C)C.[177Lu+3] (mixture of isomers) | HT-29 tumour model | – | host not given, blood | 4 h, tumour-bearing | – | tracer uptake | 2.5 %ID/g |
| CC(C)OCCOCc1ccc(OCC(O)CN(N=O)C(C)C)cc1 (centres unmarked) | Salmonella typhimurium | Ames test | TA100 | 5000 µg/plate, 30 % rat S9 | reference: solvent control | revertant fold increase | 0.8 fold |
| COc1cccc(OC)c1-c1cc(C(=O)NC2(C(=O)O)C3CC4CC(C3)CC2C4)nn1-c1ccc(C(=O)N(C)CCCN(C)CCCN(C)C(=O)[C@H](CCCCNC(=O)[C@H](CC(C)C)NC(=O)C2OC2C(=O)O)NC(=O)CN2CCN(CC(=O)[O-])CCN(CC(=O)[O-])CCN(CC(=O)[O-])CC2)cc1C(C)C.[177Lu+3] (mixture of isomers) | HT-29 tumour model | – | host not given, bone | 72 h, tumour-bearing | – | tracer uptake | 0.19 %ID/g |
| CNC(=O)C1CCCN(C(=O)C2CC3CCC2N3C(=O)[C@@H]2C[C@@H](O)CN2C(=O)NCc2cccc(Cl)c2F)C1 (mixture of isomers) | Cytochrome P450 1A2 (CYP1A2, Homo sapiens, UniProt P05177) | preincubation with NADPH | human | 16.7 µM | reference: negative control | remaining activity | 110% and 104% and 109% |

For quick reference, copied from above:
| SMILES | target or system | test | test system | conditions | how to read | measurement | value |
| --- | --- | --- | --- | --- | --- | --- | --- |
| O=C(c1ccc(OCCN2CCCCC2)cc1)c1c(-c2ccc(O[C@@H]3O[C@H](C(=O)O)[C@@H](O)[C@H](O)[C@H]3O)cc2)sc2cc(O)ccc12 | Solute carrier organic anion transporter family member 1B3 (SLCO1B3, Homo sapiens, UniProt Q9NPD5) | – | HEK293 expressing SLCO1B3 | pH 7.4 | – | Vmax | 13.6 pmol/min/mg protein |
| COc1cccc(OC)c1-c1cc(C(=O)NC2(C(=O)O)C3CC4CC(C3)CC2C4)nn1-c1ccc(C(=O)N(C)CCOCCN(C)C(=O)[C@H](CCCCNC(=O)[C@H](CC(C)C)NC(=O)C2OC2C(=O)O)NC(=O)CN2CCN(CC(=O)[O-])CCN(CC(=O)[O-])CCN(CC(=O)[O-])CC2)cc1C(C)C.[177Lu+3] (mixture of isomers) | HT-29 tumour model | – | host not given, blood | 4 h, tumour-bearing | – | tracer uptake | 2.5 %ID/g |
